# Published values gathered from unrelated publications.
# Protocols differ between the studies behind these lines. ± marks the error that the study gave.
# Sequence of UniProt Q13224 (whole entry, unmodified, looked up): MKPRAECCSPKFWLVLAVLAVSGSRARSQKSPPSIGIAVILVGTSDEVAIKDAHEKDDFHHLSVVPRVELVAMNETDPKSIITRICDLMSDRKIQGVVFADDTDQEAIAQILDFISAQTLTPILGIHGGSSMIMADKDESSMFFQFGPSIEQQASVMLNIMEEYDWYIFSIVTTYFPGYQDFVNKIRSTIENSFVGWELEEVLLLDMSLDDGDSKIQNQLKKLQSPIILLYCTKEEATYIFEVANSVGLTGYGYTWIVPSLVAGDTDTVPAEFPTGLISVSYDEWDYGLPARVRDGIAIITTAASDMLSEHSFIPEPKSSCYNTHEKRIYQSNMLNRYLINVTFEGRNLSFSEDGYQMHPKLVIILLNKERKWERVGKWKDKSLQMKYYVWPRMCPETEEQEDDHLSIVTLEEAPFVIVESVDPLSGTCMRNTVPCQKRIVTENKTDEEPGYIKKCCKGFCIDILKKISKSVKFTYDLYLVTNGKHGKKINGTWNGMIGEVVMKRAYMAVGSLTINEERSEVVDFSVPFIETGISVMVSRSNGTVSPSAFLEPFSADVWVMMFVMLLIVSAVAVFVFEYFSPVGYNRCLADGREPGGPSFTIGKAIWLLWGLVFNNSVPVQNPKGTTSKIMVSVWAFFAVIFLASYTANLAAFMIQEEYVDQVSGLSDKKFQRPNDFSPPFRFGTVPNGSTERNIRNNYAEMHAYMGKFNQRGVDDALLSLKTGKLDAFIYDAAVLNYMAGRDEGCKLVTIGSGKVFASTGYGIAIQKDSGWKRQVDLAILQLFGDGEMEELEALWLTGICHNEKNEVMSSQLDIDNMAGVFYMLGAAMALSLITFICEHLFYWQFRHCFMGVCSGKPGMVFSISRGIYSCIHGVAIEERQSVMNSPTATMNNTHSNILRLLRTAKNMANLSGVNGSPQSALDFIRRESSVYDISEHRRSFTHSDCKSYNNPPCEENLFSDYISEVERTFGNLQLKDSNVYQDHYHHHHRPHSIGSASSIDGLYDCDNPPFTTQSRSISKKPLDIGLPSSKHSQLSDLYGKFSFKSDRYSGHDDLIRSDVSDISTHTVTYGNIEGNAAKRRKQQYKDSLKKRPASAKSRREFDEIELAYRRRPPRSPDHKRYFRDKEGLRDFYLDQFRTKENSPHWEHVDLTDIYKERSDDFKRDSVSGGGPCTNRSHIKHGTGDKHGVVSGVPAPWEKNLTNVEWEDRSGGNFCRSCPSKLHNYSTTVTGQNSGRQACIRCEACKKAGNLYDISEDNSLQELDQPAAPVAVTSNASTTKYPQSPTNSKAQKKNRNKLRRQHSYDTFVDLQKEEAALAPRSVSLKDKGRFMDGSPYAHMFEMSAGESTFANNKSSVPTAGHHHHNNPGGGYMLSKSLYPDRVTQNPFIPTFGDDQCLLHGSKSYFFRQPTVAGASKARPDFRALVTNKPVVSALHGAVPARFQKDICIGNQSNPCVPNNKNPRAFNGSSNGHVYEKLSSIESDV
# Sequence of UniProt Q9HBW0 (whole entry, looked up): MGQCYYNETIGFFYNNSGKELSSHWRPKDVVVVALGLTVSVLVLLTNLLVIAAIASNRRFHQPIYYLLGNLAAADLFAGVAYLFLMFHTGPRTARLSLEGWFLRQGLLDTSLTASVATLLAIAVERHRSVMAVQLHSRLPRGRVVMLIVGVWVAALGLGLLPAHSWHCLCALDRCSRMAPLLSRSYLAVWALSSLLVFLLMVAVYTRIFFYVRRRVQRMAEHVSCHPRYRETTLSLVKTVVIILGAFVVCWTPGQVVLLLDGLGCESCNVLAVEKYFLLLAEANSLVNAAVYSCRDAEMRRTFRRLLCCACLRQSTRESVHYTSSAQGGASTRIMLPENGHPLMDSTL
# Sequence of UniProt Q62351 (whole entry, looked up): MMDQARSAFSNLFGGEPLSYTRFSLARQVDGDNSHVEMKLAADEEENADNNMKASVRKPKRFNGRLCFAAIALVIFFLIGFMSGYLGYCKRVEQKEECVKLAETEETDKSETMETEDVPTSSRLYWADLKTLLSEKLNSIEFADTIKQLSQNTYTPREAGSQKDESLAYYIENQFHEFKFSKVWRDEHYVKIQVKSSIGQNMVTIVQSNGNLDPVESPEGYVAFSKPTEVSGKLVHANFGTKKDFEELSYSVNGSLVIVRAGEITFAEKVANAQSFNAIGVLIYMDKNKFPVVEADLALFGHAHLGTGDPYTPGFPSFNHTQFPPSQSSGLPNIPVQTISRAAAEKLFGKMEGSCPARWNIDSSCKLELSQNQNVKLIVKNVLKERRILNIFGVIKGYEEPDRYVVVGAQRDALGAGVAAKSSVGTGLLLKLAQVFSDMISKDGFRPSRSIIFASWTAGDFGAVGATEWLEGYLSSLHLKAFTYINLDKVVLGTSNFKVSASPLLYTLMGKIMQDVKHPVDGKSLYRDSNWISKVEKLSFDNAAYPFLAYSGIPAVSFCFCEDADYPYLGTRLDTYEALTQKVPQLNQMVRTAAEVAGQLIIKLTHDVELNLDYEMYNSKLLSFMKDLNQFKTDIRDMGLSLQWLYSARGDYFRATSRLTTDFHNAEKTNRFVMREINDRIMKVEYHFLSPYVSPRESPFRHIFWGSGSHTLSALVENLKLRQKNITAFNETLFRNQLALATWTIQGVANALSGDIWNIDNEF
# Sequence of UniProt P11388 (whole entry, looked up): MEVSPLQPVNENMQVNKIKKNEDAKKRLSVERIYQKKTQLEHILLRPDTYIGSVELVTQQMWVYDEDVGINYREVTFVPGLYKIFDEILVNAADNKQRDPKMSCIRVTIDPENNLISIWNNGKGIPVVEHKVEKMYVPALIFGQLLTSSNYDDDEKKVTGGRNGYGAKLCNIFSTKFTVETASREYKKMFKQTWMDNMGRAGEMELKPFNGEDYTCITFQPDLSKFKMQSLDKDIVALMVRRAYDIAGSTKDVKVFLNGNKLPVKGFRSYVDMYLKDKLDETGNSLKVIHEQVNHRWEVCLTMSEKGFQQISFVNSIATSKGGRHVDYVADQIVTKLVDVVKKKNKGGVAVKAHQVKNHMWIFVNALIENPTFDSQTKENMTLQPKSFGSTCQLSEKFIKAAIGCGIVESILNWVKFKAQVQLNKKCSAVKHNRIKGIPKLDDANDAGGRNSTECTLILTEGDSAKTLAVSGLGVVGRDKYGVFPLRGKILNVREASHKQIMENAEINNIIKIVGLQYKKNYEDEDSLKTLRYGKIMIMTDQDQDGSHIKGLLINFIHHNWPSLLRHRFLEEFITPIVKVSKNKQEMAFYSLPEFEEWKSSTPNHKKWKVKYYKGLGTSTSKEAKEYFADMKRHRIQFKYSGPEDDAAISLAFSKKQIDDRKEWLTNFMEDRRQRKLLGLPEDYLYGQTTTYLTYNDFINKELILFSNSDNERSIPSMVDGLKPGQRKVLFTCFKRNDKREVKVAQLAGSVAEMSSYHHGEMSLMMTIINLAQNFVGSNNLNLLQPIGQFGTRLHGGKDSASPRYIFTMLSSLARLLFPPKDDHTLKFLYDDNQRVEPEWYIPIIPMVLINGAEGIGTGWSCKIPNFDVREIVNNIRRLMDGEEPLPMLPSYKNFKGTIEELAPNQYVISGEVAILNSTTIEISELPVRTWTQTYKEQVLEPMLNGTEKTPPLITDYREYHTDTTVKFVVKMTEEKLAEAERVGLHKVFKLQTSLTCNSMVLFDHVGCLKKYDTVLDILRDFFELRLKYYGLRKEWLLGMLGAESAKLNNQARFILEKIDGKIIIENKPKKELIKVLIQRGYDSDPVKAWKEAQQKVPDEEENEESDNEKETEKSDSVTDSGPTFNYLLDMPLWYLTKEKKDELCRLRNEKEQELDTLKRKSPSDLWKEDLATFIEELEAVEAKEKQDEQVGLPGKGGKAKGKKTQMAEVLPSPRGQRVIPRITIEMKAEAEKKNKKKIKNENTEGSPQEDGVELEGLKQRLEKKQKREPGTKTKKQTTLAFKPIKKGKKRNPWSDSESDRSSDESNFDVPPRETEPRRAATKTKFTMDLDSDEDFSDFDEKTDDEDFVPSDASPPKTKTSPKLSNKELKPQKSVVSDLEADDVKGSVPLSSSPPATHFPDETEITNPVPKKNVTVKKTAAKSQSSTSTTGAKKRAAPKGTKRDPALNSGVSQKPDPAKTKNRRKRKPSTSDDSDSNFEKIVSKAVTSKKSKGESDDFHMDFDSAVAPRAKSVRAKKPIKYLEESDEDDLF
# Sequence of UniProt Q04609 (whole entry, looked up): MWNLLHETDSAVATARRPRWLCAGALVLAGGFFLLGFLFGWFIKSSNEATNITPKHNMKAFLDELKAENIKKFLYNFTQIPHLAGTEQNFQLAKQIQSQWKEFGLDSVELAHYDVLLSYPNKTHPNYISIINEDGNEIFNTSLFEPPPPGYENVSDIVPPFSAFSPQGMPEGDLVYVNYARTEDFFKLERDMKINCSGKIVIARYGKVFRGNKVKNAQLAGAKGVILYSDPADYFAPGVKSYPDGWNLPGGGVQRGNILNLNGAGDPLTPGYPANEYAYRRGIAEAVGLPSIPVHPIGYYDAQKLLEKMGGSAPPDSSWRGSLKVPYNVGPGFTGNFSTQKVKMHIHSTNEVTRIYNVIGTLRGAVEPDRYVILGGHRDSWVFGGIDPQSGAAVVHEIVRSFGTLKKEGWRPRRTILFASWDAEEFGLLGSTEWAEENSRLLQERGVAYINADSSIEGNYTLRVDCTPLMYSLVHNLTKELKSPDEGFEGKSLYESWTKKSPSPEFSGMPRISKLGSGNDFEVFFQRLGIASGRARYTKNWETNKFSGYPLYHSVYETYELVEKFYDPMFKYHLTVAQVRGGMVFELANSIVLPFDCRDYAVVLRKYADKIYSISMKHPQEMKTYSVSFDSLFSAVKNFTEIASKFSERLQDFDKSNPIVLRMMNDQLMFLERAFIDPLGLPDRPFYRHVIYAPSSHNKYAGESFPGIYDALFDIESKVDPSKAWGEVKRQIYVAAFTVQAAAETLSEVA
Compound,target,test,system,conditions,scale,endpoint,result
CC1(C)CN(CCCCC(=O)N[C@H](Cc2ccccc2)C(=O)N[C@H](Cc2ccccc2)C(=O)N[C@@H](CCCCNC(=O)CCCCCCC(=O)NCCCC[C@H](NC(=O)N[C@@H](CCC(=O)O)C(=O)O)C(=O)O)C(=O)O)CC[N]2CC(C)(C)[S][Tc]2(=[O])[S]1 (stereo partly shown) [technetium-99m labelled],"Glutamate carboxypeptidase 2 (FOLH1, Homo sapiens, UniProt Q04609)",saturation binding,LNCaP,,,Bmax,4.7 µmol/mg
CC[C@H](C)[C@H](NC(=O)[C@H](Cc1ccccc1)NC(=O)[C@H](CCC(=O)O)NC(=O)[C@H](CCCNC(=N)N)NC(=O)[C@H](C)NC(=O)[C@H](C)NC(=O)[C@H](CCC(N)=O)NC(=O)[C@H](CCC(=O)O)NC(=O)[C@H](CCC(=O)O)NC(=O)[C@H](CC(C)C)NC(=O)[C@H](Cc1ccc(O)cc1)NC(=O)[C@H](CO)NC(=O)[C@H](CO)NC(=O)[C@@H](NC(=O)[C@H](CC(=O)O)NC(=O)[C@H](CO)NC(=O)[C@@H](NC(=O)[C@H](Cc1ccccc1)NC(=O)[C@@H](NC(=O)CNC(=O)[C@H](CCC(=O)O)NC(=O)[C@H](C)NC(=O)CCc1cnc[nH]1)[C@@H](C)O)[C@@H](C)O)C(C)C)C(=O)N[C@@H](C)C(=O)N[C@@H](Cc1c[nH]c2ccccc12)C(=O)N[C@@H](CC(C)C)C(=O)N[C@H](C(=O)N[C@@H](CCCCNC(=O)COCCOCCNC(=O)COCCOCCNC(=O)CC[C@H](NC(=O)CCCCCCCCCCCCCCCCC(=O)O)C(=O)O)C(=O)NCC(=O)N[C@@H](CCCNC(=N)N)C(=O)N[C@@H](CCCCNc1c(NCCCCCN(O)C(=O)CCC(=O)NCCCCCN(O)C(=O)CCC(=O)NCCCCCN(O)C(C)=O)c(=O)c1=O)C(=O)NCC(=O)NCC(=O)N[C@@H](CO)C(=O)N[C@@H](CCCCNc1c(NCCCCCN(O)C(=O)CCC(=O)NCCCCCN(O)C(=O)CCC(=O)NCCCCCN(O)C(C)=O)c(=O)c1=O)C(=O)NCC(=O)NCC(=O)N[C@@H](CO)C(=O)N[C@@H](CCCCNc1c(NCCCCCN(O)C(=O)CCC(=O)NCCCCCN(O)C(=O)CCC(=O)NCCCCCN(O)C(C)=O)c(=O)c1=O)C(=O)O)C(C)C,"Glucagon-like peptide 1 receptor (GLP1R, Homo sapiens, UniProt P43220)","agonist, CRE luciferase reporter",BHK cells,"Zr-loaded DFO conjugate, together with: 0% HSA",baseline: parent peptide,fold potency loss,2.9
CC[C@@H](C)[C@@H](NC(=O)[C@@H](Cc1ccc(O)cc1)NC(=O)[C@H]1CCCN1C(=O)[C@@H](CCCNC(=N)N)NC(=O)[C@H](N)Cc1c[nH]cn1)C(=O)N[C@H](C)C(=O)N[C@H](Cc1c[nH]cn1)C(=O)N[C@H](CCCNC(=N)N)C(=O)N[C@@H](C(=O)N[C@H](Cc1ccc(O)cc1)C(=O)N[C@H](CO)C(=O)N[C@H](Cc1ccccc1)C(N)=O)C(C)C,"Transferrin receptor protein 1 (Tfrc, Mus musculus, UniProt Q62351)",flow cytometry,MC-38,"6 h, unit not given",baseline: 0 h,surface TFRC expression,0.836
CN1CCN(c2cc(-c3ccncc3)c(-c3ccc4ccccc4c3)nn2)CC1,"Lysophosphatidic acid receptor 2 (LPAR2, Homo sapiens, UniProt Q9HBW0)","agonist, FLIPR",,12.5 µM,,activation,-1.4%
CC(=O)N[C@H]1[C@H]([C@H](O)[C@H](O)CO)OC(O[C@H]2[C@@H](O)[C@@H](CO)O[C@@H](Oc3ccc([N+](=O)[O-])cc3)[C@@H]2O)(C(=O)O)C[C@@H]1O (stereo partly shown),"Sialidase-2 (Homo sapiens, UniProt Q9Y3R4)",substrate,,"0.3 mM, 30 min, pH 5.0, 37 °C",,sialic acid release,75%
Cc1ccc(N2CC(C(N)=O)CC2=O)cc1 (stereo not shown),"Transcription intermediary factor 1-beta, PHD-bromodomain (TRIM28, Homo sapiens, UniProt Q13263)","binding, affinity selection mass spectrometry",,,baseline: other proteins in batch,fold enrichment,0.915
C[C@H](CCC(C)(C)O)[C@H]1CC[C@H]2[C@@H]3CC=C4C[C@@](C)(O)CC[C@]4(C)[C@H]3CC[C@]12C,"Glutamate NMDA receptor; GRIN1/GRIN2B (GRIN1/GRIN2B, Homo sapiens, UniProt Q05586+Q13224, V564A)","positive allosteric modulator, two-electrode voltage clamp",Xenopus oocytes expressing GluN2B-V564A,"10 µM, 0.02% cremophor, together with: 100 µM glutamate and glycine",baseline: without compound,current response,342 ± 25%
N#Cc1ccc2[nH]cc(CCCCN3CCN(c4ccc5oc(C(N)=O)cc5c4)CC3)c2c1,"Sodium-dependent serotonin transporter (SLC6A4, Homo sapiens, UniProt P31645)","[3H]5-HT uptake, inhibitor",HEK293,,,Hill coefficient,1.39 ± 0.1
Cc1nc(CSc2nc(SCc3ccc(C(C)C)cc3)nc(=O)[nH]2)cs1,"DNA topoisomerase 2-alpha (TOP2A, Homo sapiens, UniProt P11388)",DNA cleavage,,"15.6 µM, replicate 1",,linear DNA,0%
COc1cc(F)ccc1-c1ncnc(Nc2cccc(C[S@](C)(=N)=O)c2)n1,"Phosphatidylinositol 4,5-bisphosphate 3-kinase catalytic subunit beta isoform, with p85 alpha (PIK3CB, Homo sapiens, UniProt P42338)",kinase activity,,"10 µM, together with: ATP 10 µM",,remaining activity,99%

# For quick reference, copied from above:
Compound,target,test,system,conditions,scale,endpoint,result
Cc1ccc(N2CC(C(N)=O)CC2=O)cc1 (stereo not shown),"Transcription intermediary factor 1-beta, PHD-bromodomain (TRIM28, Homo sapiens, UniProt Q13263)","binding, affinity selection mass spectrometry",,,baseline: other proteins in batch,fold enrichment,0.915
C[C@H](CCC(C)(C)O)[C@H]1CC[C@H]2[C@@H]3CC=C4C[C@@](C)(O)CC[C@]4(C)[C@H]3CC[C@]12C,"Glutamate NMDA receptor; GRIN1/GRIN2B (GRIN1/GRIN2B, Homo sapiens, UniProt Q05586+Q13224, V564A)","positive allosteric modulator, two-electrode voltage clamp",Xenopus oocytes expressing GluN2B-V564A,"10 µM, 0.02% cremophor, together with: 100 µM glutamate and glycine",baseline: without compound,current response,342 ± 25%
